Results gathered from unrelated publications.
Numbered parts are unrelated; each lists some results of a single study. Changes are numbered by the printed parent chain.

Series 1 — target: UBE2O UBC core domain (UniProt Q9C0C9); method: yeast two-hybrid; medium: yeast; notes: mostly zero background; reference: not given; reading: higher = stronger interaction; endpoint: lacZ reporter activity
B1: MKRN3 RING domain (UniProt Q13064); chain FAVQRGMDKVCGICMEVVYEKANPNDRRFGILSNCNHSFCIRCIRRWRSARQFENRIVKSCPQCRVTSELVIPSE
B2: MARCHF1 RING domain (UniProt Q8TCQ1); chain TAPRSQSRLSVCPSTQDICRICHCEGDEESPLITPCRCTGTLRFVHQSCLHQWIKSSDTRCCELCKYDFIMETKLKPLRKWE
B3: BFAR RING domain (UniProt Q9NZS9); chain GPQISVSEFSCHCCYDILVNPTTLNCGHSFCRHCLALWWASSKKTECPECREKWEGFPKVS
B4: TRIM11 RING domain (UniProt Q96F44); chain LSTNLQEEATCAICLDYFTDPVMTDCGHNFCRECIRRCWGQPEGPYACPECRELSPQRNLRP
B5: TRIM41 RING domain (UniProt Q8WV44); chain PVQTLQEEAVCAICLDYFTDPVSIGCGHNFCRVCVTQLWGGEDEEDRDELDREEEEEDGEEE
B6: RUFY1 RING domain (UniProt Q96T51); chain QALKGHAWLKDDEATHCRQCEKEFSISRRKHHCRNCGHIFCNTCSSNELALPSYPKPVRVCDSCHTLLLQRCSSTAS
B7: HLTF RING domain (UniProt Q14527); chain LILSSGSDEECAICLDSLTVPVITHCAHVFCKPCICQVIQNEQPHAKCPLCRNDIHEDNLLE
B8: NFX1 RING domain (UniProt Q12986); chain IEQLTTEKYECMVCCELVRVTAPVWSCQSCYHVFHLNCIKKWARSPASQADGQSGWRCPACQNVSAHVPNTY
B9: RNF103 RING domain (UniProt O00237); chain WPADMLHCTECVVCLENFENGCLLMGLPCGHVFHQNCIVMWLAGGRHCCPVCRWPSYKKKQPY
Residues (chain): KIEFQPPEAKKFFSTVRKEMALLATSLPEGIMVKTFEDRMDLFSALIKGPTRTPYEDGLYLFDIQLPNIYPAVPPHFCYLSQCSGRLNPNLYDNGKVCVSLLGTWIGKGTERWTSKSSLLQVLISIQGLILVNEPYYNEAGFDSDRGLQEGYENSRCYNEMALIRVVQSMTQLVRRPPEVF
B1 (MKRN3 RING domain): 0
ASPKIFQKTKCSICNSALELPSVHFLCGHSFHQHCFESYSESDADCPTCLPENRKVMDMI (VPS11 RING domain (UniProt Q9H270)): 0
B2 (MARCHF1 RING domain): 0
EIKEYKARLTCPCCNTRKKDAVLTKCFHVFCFECVRGRYEARQRKCPKCNAAFGAHDFHR (RNF40 RING domain (UniProt O75150)): 0
B3 (BFAR RING domain): 0
B4 (TRIM11 RING domain): 0
FDPPLESKYECPICLMALREAVQTPCGHRFCKACIIKSIRDAGHKCPVDNEILLENQLFP (TRAF6 RING domain (UniProt Q9Y4K3)): 0
B5 (TRIM41 RING domain): 0
DDVLTKDAGECVICLEELLQGDTIARLPCLCIYHKSCIDSWFEVNRSCPEHPAD (ZNRF1 RING domain (UniProt Q8ND25)): 0
B6 (RUFY1 RING domain): 0
ASEEEFQFLRCQQCQAEAKCPKLLPCLHTLCSGCLEASGMQCPICQAPWPLGADTP (PML RING domain (UniProt P29590)): 0
B7 (HLTF RING domain): 0
B8 (NFX1 RING domain): 0
B9 (RNF103 RING domain): 0

Series 2 — method: protein binding microarray; form: double-stranded DNA, one strand shown; medium: in vitro; concentration: not given; reference: not given; reading: higher = stronger binding; endpoint: E-score
Target: Histone acetyltransferase KAT6A, winged helix 1, GST fusion (KAT6A, Homo sapiens, UniProt Q92794, residues 1-85)
Notes: 8-mer, flanks averaged, mean of 2 arrays, mostly near background
Residues (chain): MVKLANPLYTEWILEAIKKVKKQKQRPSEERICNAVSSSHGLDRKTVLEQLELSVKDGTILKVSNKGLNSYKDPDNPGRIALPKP
ATCTGCCC: 0.034
CATTTGAG: -0.165
CGCAGGGA: 0.0617
CACCTCGA: -0.106
TACCAGCA: -0.106
AAGGCTAA: -0.0801
CGACCCTC: -0.129
CGTTGACA: -0.119
GTCTGTAA: 0.0406
ATAGCCAT: -0.0046
ACTTTTAC: -0.0496
GAAGAACA: -0.146
GCCCATTA: -0.0756
GGGAACCC: 0.116
CTGACACC: -0.033
ATGTGCCG: 0.161
CCTCAGGC: -0.0293
ATAGTCCC: 0.11
CATGCAGG: -0.199
GAAGTGAA: -0.0711
CTCGCAAC: -0.0807
AAAGTATG: -0.109
CGGTGTGC: 0.186
AAAGACCA: -0.146
AGCCTCAT: -0.162

Series 3 — method: universal PBM; form: double-stranded DNA, one strand shown; medium: in vitro; concentration: not given; reading: higher = stronger binding; endpoint: E-score
Target: Sal-like protein 4, full length isoform B (SALL4, Homo sapiens, UniProt Q9UJQ4-2, residues 1-616)
Notes: 8-mer, flanks averaged, mean of replicates
ATGTCTCG: -0.0821
ATTTGGGC: 0.0134
GTCCTCTA: -0.12
GCCGTTGA: 0.022
ACATAGGT: 0.17
ACCACATC: -0.168
GATCATGA: 0.0938
CGTGGGCA: -0.228
ACTCACGG: -0.115
ATGACCCC: -0.0623
ATTGTCGC: 0.0599
GCTCCAAC: -0.181
ATATTCCG: 0.232
CACAAAAA: 0.25
GCGCTGCA: -0.141
ATGCCTTC: -0.116
GTGTTGGA: -0.0673
GAGCTTCC: -0.201
ATGGTGAA: 0.0424
CAAAAATC: 0.237
ACGAACCT: -0.0467
ATTTACTA: 0.223
CCTGCAGA: -0.125
AAAAACTG: 0.0864
ACAAGAAT: 0.137

Series 4 — method: RNA Bind-n-Seq; form: RNA; medium: in vitro; concentration: 365 nM; reference: no-protein control; reading: higher = stronger binding; endpoint: RBNS enrichment (R)
Target: RNA binding protein fox-1 homolog 2, RRM domain, GST-SBP tag (RBFOX2, Homo sapiens, UniProt O43251-10, residues 100-194)
Notes: natural RNA segment, single round, ends assumed
Constant ends, left off below: GGGAGUUCUACAGUCCGACGAUC … UGGAAUUCUCGGGUGCCAA
Residues (chain): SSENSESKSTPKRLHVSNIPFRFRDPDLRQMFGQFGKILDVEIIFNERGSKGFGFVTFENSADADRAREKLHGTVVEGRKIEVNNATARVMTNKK
GCCACCGAGUGUCUUCUCAUUUUAUUUCAGCUCCAUUUUGCCCAUAGAUGGGCAGAGGGGUGAGAUUGGCUCAUCCCCCUUCCAGAUUCUGCAAUAAAGCGGUGUGAGGA: 0.264
UUUAAAACUUGAGCCUGGACCUUGGGGUCCUGUAGUGUGUGGAUUCCAAGGCCUUGCCCUCAGAGCAGGGGCCUGGGCACUCUCACUCACGUGGCCUGUCUCCAGAUCCC: 0.292
AACCUUCCCUCUGUUCCAUGGUCUUUGUGAACCUGCUUAGAGGUAUAGUUUUGAUAACCACAGUUUUAAUUCUUUUAUCUGUGCAUAAUAAAGAUAUGUAUCAAUUAUUA: 0.441
ACUGGCAGCACUACAGCGAGAACAUGUUCUCCUUUGAGGUGGAGAAGGAGCUGUUUGCCCUGAAACCCAUGAACUGCCCAGGACACUGGCUUAUGUUUGAUCAUCGGCCA: 0.604
AGAGGUGCCGGGUUCCUAUUGGUUAGUUGGUUGUUUUUCCGUCUGAGUGAAUUUUUGCCAGUCUUGUGAGCAGAUGUACCUGAUGUAUUCUCAAUGUUCCAAGAGGUUCU: 0.983
AGAAAAACAAAUACUUUCUUGAUCAAUAUGUAAAGCCAGGAAGUUGGUAAGAGUGACUGAGUAGCCUGACUAUAAUACACAGUUAUAGUGAUAAUCACAGGAAAAGAUGC: 1.74
AGGUUAAAGACAGUCAUAUAAACGUCCUGUUUCUGUUUUAAUGUUAUCAUAGAAUUUUUUAAUGAAACUAAAUUCAAUUGAAAUAAAUGAUAGUUUUCAUCUCCAUUCAG: 0.519
UCCAGCUGGGUGUCUGGAGGGAAGAGGGCAGAGGAGGGUCAUGUCCCUUCAGCUGGGGGAGGGGCCCAGUGAGCUCCACGUGGCUUUUUCCCAAAGGGAGCAAGAGGGAA: 0.463
GGAGGCUCCCACCCACCUCUCCCAAGAGCAGACAUUAAACAUCUUUGUGCUUUGAAGAGAGUGAAUUUUGGAUAGUCUUGUGAUUCUCAGACUAACUUCCAGAAUUAUAC: 0.316
UCUUUGUUUUCUAAUGCAAUAUGUGCCUCUUCCCCUCGCUGAACCUCUAAGACAUAUGUAUUUCACACUAGAUGGCGUCGGACAUUGCCAUAUCUCCUGUGGCACCUAGG: 0.365
UGGAGGCCAUUAUCACUGGGCUGCUGCUUUCCUGGGCAAGCCACUCUCUAUUUUUCUGCAAAGGUCAAAAGACCCUGGUGUUGGGGGCCCUUUAGAGGGUGUGCUUUGGA: 0.506
UCUAUCACCACGAGAGAACUUCCCAUCCAGGGCAGAACUCUGAUCUUAAACACUUCCCACUGCCAGAGUGAGAGUGGGAGUCAUGGCCUCCUGAAAACUUGGACUCUGCA: 5.32

Series 5 — target: CCNB3, cyclin fold, Cln2 fusion (human); method: yeast growth competition, sequencing; medium: yeast; notes: weak parent motif; reference: not given; reading: higher = stronger binding; endpoint: normalised enrichment score
Parent: WEE2 docking peptide (human); KELRQKLNFSYCE; partner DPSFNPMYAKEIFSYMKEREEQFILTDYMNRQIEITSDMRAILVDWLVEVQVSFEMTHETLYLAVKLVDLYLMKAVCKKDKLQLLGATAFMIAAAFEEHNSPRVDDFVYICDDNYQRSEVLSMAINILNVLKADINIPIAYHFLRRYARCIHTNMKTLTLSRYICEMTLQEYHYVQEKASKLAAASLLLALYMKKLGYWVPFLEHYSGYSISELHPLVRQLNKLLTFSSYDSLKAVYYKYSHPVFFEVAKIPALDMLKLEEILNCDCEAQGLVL
KELRQKLNFSYCA [E13A]: 0.226
KELRQKLNASYCE [F9A]: 0.26
KELRQALNFSYCE [K6A]: 0.0245
KELRAKLNFSYCE [Q5A]: 0.0123
KEARQKLNFSYCE [L3A]: 0.136
KALRQKLNFSYCE [E2A]: 0.327

Series 6 — method: DHFR PCA, dose-response; medium: yeast; notes: Hill fit, mean, not affinity; added: (+)-ABA, dose series; reading: lower = more sensitive; endpoint: ABA EC50
Target: ABI1, truncated, D143A, DHFR fusion (Arabidopsis thaliana, UniProt P49597)
Parent: PYL1, truncated, DHFR fusion (Arabidopsis thaliana, UniProt Q8VZS8); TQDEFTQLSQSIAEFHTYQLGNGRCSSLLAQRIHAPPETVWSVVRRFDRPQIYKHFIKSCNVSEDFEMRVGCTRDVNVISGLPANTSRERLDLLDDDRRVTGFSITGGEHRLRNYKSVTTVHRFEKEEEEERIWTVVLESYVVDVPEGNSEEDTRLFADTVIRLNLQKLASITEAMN
L164R: 1.67 µM
G102C: 75.2 µM
A30W: 2.28 µM
F5Q: 3.12 µM
H16I: 563 µM
Q167H: 4.41 µM
R132N: 0.419 µM
F157I: 23.9 µM
E128D: 1.21 µM
S26M: 7.63 µM
S26E: 57.2 µM
E67V: 2.17 µM
Q7A: 1.73 µM
G71C: 321 µM
T120W: 637 µM
T160W: 18.3 µM
R46W: 103 µM
D92M: 48.3 µM
N61M: 2.27 µM
G71S: 72.6 µM
K58A: 2.3 µM
G108N: 178 µM
F124D: 3.09 µM
L93V: 1.6 µM
D65N: 2.17 µM

Repeated from above (series 3):
ATGGTGAA: 0.0424
ACTCACGG: -0.115
GCCGTTGA: 0.022
ACGAACCT: -0.0467
AAAAACTG: 0.0864
ACCACATC: -0.168
ACATAGGT: 0.17
ATGACCCC: -0.0623
GTCCTCTA: -0.12
ATGTCTCG: -0.0821
GTGTTGGA: -0.0673
